# Measured values of several laboratories.
# Each numbered part is a random draw from the data of one study; scales do not carry over between parts. Values joined by “and” are separate records of one study, mostly repeats; a detail may differ.
# UniProt P33981, sequence (whole entry, looked up): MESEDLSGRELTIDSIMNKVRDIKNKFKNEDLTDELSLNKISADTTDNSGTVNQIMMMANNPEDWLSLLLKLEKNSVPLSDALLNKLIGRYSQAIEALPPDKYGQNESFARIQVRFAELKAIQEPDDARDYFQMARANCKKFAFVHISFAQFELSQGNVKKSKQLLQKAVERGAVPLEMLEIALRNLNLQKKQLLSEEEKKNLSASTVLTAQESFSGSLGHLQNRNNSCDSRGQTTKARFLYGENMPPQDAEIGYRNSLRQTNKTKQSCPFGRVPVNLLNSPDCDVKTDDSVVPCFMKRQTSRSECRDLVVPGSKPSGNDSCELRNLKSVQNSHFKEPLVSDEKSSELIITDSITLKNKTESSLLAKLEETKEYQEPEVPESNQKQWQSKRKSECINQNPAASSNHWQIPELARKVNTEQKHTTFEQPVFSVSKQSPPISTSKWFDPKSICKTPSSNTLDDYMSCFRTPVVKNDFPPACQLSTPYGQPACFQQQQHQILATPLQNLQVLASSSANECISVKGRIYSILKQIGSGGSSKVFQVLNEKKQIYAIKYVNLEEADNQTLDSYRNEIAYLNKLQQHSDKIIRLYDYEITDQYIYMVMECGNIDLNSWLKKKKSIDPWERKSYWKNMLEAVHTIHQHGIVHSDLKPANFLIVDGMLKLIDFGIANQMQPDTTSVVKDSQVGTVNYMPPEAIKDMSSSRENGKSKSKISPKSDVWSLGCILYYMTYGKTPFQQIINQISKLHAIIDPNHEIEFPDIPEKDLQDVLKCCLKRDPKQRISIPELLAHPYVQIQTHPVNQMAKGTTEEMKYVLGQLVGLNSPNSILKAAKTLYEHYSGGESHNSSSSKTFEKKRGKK
# UniProt Q96SW2, sequence (whole entry, looked up): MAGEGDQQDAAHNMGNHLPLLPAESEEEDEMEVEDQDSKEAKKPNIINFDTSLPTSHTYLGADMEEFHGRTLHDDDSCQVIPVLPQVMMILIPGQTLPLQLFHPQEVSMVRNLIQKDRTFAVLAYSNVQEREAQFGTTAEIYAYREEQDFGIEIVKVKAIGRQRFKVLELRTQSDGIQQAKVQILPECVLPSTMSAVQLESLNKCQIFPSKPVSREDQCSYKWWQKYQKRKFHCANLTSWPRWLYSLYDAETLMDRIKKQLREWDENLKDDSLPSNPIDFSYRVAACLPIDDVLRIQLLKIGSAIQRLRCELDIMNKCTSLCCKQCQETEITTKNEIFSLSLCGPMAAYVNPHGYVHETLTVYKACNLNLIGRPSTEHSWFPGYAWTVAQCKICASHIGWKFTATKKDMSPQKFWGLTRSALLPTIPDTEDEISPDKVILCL
# UniProt P07333, sequence (whole entry, looked up): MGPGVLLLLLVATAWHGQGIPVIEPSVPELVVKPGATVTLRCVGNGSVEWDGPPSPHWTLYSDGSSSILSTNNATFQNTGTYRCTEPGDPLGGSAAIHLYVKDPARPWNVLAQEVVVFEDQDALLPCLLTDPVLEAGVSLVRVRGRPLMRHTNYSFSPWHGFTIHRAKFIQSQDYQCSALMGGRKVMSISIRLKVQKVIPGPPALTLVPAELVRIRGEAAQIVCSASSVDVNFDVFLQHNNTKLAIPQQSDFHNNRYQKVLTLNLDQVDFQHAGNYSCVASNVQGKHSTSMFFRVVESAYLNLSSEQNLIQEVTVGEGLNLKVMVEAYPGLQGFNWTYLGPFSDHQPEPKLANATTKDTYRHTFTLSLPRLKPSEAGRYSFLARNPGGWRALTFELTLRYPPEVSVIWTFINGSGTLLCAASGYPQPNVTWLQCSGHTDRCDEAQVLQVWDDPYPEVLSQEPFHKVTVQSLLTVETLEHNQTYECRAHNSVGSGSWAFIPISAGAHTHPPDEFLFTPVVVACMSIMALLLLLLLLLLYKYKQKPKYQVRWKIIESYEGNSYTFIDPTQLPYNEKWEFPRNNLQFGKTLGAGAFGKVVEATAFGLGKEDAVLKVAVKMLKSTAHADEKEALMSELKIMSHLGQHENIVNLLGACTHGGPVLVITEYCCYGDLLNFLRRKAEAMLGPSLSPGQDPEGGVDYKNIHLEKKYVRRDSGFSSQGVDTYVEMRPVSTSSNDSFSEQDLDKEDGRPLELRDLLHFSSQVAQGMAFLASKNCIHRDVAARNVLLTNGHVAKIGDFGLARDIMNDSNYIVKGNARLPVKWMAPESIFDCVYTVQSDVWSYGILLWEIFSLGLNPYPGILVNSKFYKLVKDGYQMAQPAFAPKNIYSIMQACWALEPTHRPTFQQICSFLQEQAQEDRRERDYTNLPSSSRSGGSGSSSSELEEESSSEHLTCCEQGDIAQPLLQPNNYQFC

# Study 1 — read-out: kinase activity
# SMILES: CNc1ncc2cc(-c3cc(OC)cc(OC)c3Cl)c(=O)n(CCc3ccc(NC(=O)C(C#N)=CC(C)(C)N4CCOCC4)cc3)c2n1
# CSNK1G3: Casein kinase I isoform gamma-3 (CSNK1G3, Homo sapiens, UniProt Q9Y6M4)
# UniProt Q9Y6M4, sequence (whole entry, looked up): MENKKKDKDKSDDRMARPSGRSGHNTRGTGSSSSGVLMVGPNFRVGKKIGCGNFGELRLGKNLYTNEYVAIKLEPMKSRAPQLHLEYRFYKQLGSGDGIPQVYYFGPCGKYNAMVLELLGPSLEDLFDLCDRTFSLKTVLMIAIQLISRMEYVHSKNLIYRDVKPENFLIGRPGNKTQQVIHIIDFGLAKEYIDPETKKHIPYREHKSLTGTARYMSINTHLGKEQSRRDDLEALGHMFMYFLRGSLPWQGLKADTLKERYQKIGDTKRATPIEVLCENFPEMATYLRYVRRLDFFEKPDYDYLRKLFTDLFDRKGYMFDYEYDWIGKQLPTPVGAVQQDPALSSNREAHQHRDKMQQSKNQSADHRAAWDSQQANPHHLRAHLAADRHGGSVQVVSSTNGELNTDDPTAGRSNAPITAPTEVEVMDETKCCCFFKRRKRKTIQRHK
target,tested at,inhibition
"Protein-tyrosine kinase 6 (PTK6, Homo sapiens, UniProt Q13882)",0.1 µM,-8%
"Ribosomal protein S6 kinase alpha-5 (RPS6KA5, Homo sapiens, UniProt O75582)",1 µM,1%
"Serine/threonine-protein kinase MRCK beta (CDC42BPB, Homo sapiens, UniProt Q9Y5S2)",1 µM,3%
"Tyrosine-protein kinase Lyn, isoform A (LYN, Homo sapiens, UniProt P07948)",1 µM,13%
CSNK1G3,1 µM,13%
"Serine/threonine-protein kinase PAK 1 (PAK1, Homo sapiens, UniProt Q13153)",0.1 µM,1%
"Protein kinase C theta type (PRKCQ, Homo sapiens, UniProt Q04759)",0.1 µM,3%
"Dual specificity protein kinase TTK (TTK, Homo sapiens, UniProt P33981)",1 µM,-2%
"Dual specificity tyrosine-phosphorylation-regulated kinase 1A (DYRK1A, Homo sapiens, UniProt Q13627)",1 µM,-2%
"5'-AMP-activated protein kinase catalytic subunit alpha-1, with beta1, gamma1 (PRKAA1, Homo sapiens, UniProt Q13131)",1 µM,-1%
CSNK1G3,0.1 µM,1%
"Phosphatidylinositol 4,5-bisphosphate 3-kinase catalytic subunit delta isoform (PIK3CD, Homo sapiens, UniProt O00329)",1 µM,8%
"Fibroblast growth factor receptor 1 (FGFR1, Homo sapiens, UniProt P11362)",1 µM,98%
"Macrophage colony-stimulating factor 1 receptor (CSF1R, Homo sapiens, UniProt P07333)",1 µM,95% and > 90%
"Tyrosine-protein kinase Yes (YES1, Homo sapiens, UniProt P07947)",0.1 µM,4%
"Ribosomal protein S6 kinase beta-1 (RPS6KB1, Homo sapiens, UniProt P23443)",0.1 µM,-1%
"Interleukin-1 receptor-associated kinase 1 (IRAK1, Homo sapiens, UniProt P51617)",1 µM,-8%

# Study 2 — tested at: 1 µM
# Structure (SMILES): COc1cc(-c2nc3ccc(C(=O)NCCCN(C)C)cc3n2C2CCC2)cc(OC)c1OC
target,read-out,method,relative to,remaining binding [%]
"Tyrosine-protein kinase BTK (BTK, Homo sapiens, UniProt Q06187)",binding,competition with immobilised ligand,,67
"Cyclin-dependent kinase 8 (CDK8, Homo sapiens, UniProt P49336)",binding,competition with immobilised ligand,,100
"Protein kinase C epsilon type (PRKCE, Homo sapiens, UniProt Q02156)",binding,competition with immobilised ligand,,100
"Calcium/calmodulin-dependent protein kinase type IV (CAMK4, Homo sapiens, UniProt Q16566)",binding,competition with immobilised ligand,,100
"Homeodomain-interacting protein kinase 2 (HIPK2, Homo sapiens, UniProt Q9H2X6)",binding,competition with immobilised ligand,,93
"AP2-associated protein kinase 1 (AAK1, Homo sapiens, UniProt Q2M2I8)",binding,competition with immobilised ligand,,91
"Phosphatidylinositol 4,5-bisphosphate 3-kinase catalytic subunit alpha isoform (PIK3CA, Homo sapiens, UniProt P42336, E545A)",binding,competition with immobilised ligand,,83
"Tyrosine-protein kinase ABL1, non-phosphorylated (ABL1, Homo sapiens, UniProt P00519, Q252H)",binding,competition with immobilised ligand,,23
"Aurora kinase A (AURKA, Homo sapiens, UniProt O14965)",binding,competition with immobilised ligand,,60
"Epidermal growth factor receptor (EGFR, Homo sapiens, UniProt P00533, del747-752/P753S)",binding,competition with immobilised ligand,,88
"Dual specificity protein kinase CLK3 (CLK3, Homo sapiens, UniProt P49761)",binding,competition with immobilised ligand,,100
"Receptor-interacting serine/threonine-protein kinase 1 (RIPK1, Homo sapiens, UniProt Q13546)",binding,competition with immobilised ligand,,96
"Serine/threonine-protein kinase MRCK alpha (CDC42BPA, Homo sapiens, UniProt Q5VT25)",binding,competition with immobilised ligand,,94
"Dual specificity protein kinase TTK (TTK, Homo sapiens, UniProt P33981)",binding,competition with immobilised ligand,,100
"Serine/threonine-protein kinase MRCK gamma (CDC42BPG, Homo sapiens, UniProt Q6DT37)",,KINOMEscan,control,89
"Serine/threonine-protein kinase SIK3 (SIK3, Homo sapiens, UniProt Q9Y2K2)",binding,competition with immobilised ligand,,92
"Serine/threonine-protein kinase SBK1 (SBK1, Homo sapiens, UniProt Q52WX2)",binding,competition with immobilised ligand,,100
"Dual specificity mitogen-activated protein kinase kinase 2 (MAP2K2, Homo sapiens, UniProt P36507)",binding,competition with immobilised ligand,,98
"ALK tyrosine kinase receptor (ALK, Homo sapiens, UniProt Q9UM73)",binding,competition with immobilised ligand,,98

# Study 3 — read-out: thermal unfolding; method: differential scanning fluorimetry; tested at: 5.5 µM; direction: higher = more unfolded
# SMILES: C[C@@H]1CN(c2ccc(-c3cc(C(=O)NCCOCCOCCOCCOCCOCCOCCNC(=O)/C=C/c4[nH]cc(C(=O)N[C@@H](CC(N)=O)c5ccc(F)c(Cl)c5)c4-c4ccc(Cl)cc4F)ccc3F)cc2NC(=O)c2ccc(F)cc2C(F)(F)F)C[C@H](C)N1C
# WDR5: WD repeat-containing protein 5 (WDR5, Homo sapiens, UniProt P61964)
# DCAF1: DDB1- and CUL4-associated factor 1 (DCAF1, Homo sapiens, UniProt Q9Y4B6)
# UniProt Q9Y4B6, sequence (whole entry, looked up): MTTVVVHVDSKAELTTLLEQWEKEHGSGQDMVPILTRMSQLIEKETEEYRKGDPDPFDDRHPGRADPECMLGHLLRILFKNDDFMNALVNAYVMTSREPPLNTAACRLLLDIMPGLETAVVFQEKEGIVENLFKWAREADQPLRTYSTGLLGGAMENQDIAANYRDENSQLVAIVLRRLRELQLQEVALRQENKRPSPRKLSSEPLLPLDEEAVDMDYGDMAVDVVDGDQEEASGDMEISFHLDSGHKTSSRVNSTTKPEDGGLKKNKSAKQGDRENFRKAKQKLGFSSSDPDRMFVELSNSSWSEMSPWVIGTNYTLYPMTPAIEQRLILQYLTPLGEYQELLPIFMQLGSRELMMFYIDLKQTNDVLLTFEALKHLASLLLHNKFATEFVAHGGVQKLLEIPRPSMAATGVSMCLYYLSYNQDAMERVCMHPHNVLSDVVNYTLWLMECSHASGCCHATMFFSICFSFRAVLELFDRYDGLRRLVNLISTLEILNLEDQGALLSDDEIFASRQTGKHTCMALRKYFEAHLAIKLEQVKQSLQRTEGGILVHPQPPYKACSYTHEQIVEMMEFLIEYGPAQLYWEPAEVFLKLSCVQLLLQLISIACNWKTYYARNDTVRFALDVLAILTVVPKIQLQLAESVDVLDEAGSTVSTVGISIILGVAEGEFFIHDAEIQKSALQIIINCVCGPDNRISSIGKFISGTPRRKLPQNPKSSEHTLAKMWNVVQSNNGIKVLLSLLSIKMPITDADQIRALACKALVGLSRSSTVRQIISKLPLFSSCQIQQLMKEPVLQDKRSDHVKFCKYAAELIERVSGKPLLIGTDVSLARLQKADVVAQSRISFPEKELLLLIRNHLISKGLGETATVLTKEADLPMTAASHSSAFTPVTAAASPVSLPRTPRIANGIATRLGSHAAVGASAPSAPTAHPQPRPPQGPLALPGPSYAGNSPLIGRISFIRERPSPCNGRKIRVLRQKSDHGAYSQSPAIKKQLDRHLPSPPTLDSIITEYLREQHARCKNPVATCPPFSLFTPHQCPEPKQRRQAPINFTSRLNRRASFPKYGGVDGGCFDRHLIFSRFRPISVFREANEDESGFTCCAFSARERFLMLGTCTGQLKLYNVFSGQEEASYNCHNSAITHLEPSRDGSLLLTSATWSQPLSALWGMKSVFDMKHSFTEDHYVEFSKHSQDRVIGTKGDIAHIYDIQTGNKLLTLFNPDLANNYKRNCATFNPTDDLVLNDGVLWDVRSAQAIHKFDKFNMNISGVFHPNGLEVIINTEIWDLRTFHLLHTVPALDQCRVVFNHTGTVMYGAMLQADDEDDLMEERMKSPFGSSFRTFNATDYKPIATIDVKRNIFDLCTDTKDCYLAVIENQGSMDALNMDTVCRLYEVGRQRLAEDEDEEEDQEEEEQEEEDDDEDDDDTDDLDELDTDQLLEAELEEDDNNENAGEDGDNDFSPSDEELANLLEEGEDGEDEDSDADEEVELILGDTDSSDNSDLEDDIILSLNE
target,temperature,SYPRO Orange fluorescence
WDR5,70.41 °C,28800 a.u.
WDR5,36.8 °C,13800 a.u.
WDR5,94.61 °C,48600 a.u.
WDR5,79.21 °C,63300 a.u.
DCAF1,34.6 °C,9750 a.u.
WDR5,82.01 °C,65700 a.u.
DCAF1,65.21 °C,53500 a.u.
DCAF1,93.81 °C,29500 a.u.
WDR5,45.2 °C,14600 a.u.
DCAF1,86.21 °C,34800 a.u.
WDR5,58.61 °C,15700 a.u.

# Study 4
# SMILES: Cc1ccc(O)c(C)c1-c1cnc2[nH]c(-c3cnc(N4CCC5(CC4)CC(N4CCN(c6ccc(N[C@H]7CCC(=O)NC7=O)cc6F)CC4)CO5)nc3)cc2c1C#N (single isomer, unassigned)
# PKMYT1: Membrane-associated tyrosine- and threonine-specific cdc2-inhibitory kinase (PKMYT1, Homo sapiens, UniProt Q99640)
# UniProt Q99640, sequence (whole entry, looked up): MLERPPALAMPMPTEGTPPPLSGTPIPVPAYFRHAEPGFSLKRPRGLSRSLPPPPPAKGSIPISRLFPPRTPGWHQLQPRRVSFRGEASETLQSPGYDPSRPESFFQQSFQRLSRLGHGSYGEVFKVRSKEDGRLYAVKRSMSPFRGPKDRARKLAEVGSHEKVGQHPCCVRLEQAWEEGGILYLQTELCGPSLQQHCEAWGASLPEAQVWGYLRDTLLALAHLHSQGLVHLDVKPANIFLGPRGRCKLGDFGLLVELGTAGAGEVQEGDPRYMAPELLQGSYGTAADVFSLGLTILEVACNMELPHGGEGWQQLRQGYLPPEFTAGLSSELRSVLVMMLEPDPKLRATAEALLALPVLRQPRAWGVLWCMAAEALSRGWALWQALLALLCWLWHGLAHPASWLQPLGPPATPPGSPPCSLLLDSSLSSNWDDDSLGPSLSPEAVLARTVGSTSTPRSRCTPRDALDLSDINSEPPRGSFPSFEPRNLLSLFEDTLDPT
target or system,assay,setting,inhibition
"Protein cereblon (CRBN, Homo sapiens, UniProt Q96SW2)",binding,41.15 nM,8.09% and 5.97%
HCC1806,cell proliferation,41.15 nM,4.95% and 0.89% and 0.93%
NCI-H1568,cell proliferation,41.15 nM,4.73% and 0.16% and 5.15%
HCC1806,cell proliferation,13.72 nM,-0.87% and 7% and 5.18%
HCC1569,"automated capillary immunoblot, refers to: CDK1 phospho-Thr14","1 nM, 24 h",14%
NCI-H1568,cell proliferation,4.572 nM,1.53% and 1.31%
PKMYT1,,4.572 nM,54.4% and 49.5%
NCI-H1568,cell growth,3333.33 nM,78.3%
PKMYT1,"enzyme activity, inhibitor",41.15 nM,94%
U-251 MG,cell growth,30000 nM,91%
NCI-H1648,cell proliferation,123.5 nM,-26.9% and -31% and -22.3%
PKMYT1,,0.004572 µM,50.6%

# Excerpt of the above (study 4):
target or system,assay,setting,inhibition
PKMYT1,"enzyme activity, inhibitor",41.15 nM,94%
HCC1806,cell proliferation,13.72 nM,-0.87% and 7% and 5.18%
HCC1806,cell proliferation,41.15 nM,4.95% and 0.89% and 0.93%
PKMYT1,,4.572 nM,54.4% and 49.5%
U-251 MG,cell growth,30000 nM,91%
NCI-H1648,cell proliferation,123.5 nM,-26.9% and -31% and -22.3%
"Protein cereblon (CRBN, Homo sapiens, UniProt Q96SW2)",binding,41.15 nM,8.09% and 5.97%
NCI-H1568,cell proliferation,41.15 nM,4.73% and 0.16% and 5.15%
NCI-H1568,cell proliferation,4.572 nM,1.53% and 1.31%
